Measurements pooled from the literature.
Each numbered part is a random draw from the data of one study; scales do not carry over between parts. Substitutions count along the parent as printed.

Sample 1
Target: Interferon regulatory factor 7, full length, phosphomimetic (IRF7, Homo sapiens, UniProt Q92985, residues 1-503, S101K/S471D/S472D/S475D/S476D/S477D/S483D/S484D/S487D)
Method: protein-binding microarray
Molecule type: double-stranded DNA, one strand shown
Medium: in vitro
Concentration: 250 nM
Setting: 60-bp whole probe
Added: salmon DNA 0.4 mg/ml
Reference: random background probes
Reading: higher = stronger binding
All sequences stand within: GCCTAGCAC … GTCTTGATTCGCTTGACGCTGCTG
Target sequence (chain): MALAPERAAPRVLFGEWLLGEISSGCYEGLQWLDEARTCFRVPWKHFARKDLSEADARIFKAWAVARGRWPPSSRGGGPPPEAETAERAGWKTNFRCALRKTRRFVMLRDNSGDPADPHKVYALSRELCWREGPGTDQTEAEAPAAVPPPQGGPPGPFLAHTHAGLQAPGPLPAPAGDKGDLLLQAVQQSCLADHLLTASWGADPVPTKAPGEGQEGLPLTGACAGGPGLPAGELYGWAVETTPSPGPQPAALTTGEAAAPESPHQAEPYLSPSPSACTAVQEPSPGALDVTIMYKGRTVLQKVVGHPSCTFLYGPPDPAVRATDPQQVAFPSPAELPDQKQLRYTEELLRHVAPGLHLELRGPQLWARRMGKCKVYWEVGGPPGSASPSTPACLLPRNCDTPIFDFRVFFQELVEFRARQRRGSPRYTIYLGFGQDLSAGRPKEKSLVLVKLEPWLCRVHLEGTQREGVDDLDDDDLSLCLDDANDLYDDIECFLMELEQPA
Oligonucleotide | log fluorescence [z-score]
TTAGGACTGGGTCTCGGTTAGTGCTAG | 1.07
GACGATCTCAGACTGGAGAAGTGCTAG | -0.336
TTAGGACTGCTACTACTTTAGTGCTAG | -0.251
GACGAACTGAGACTTGAGACGTGCTAG | 0.358
TTGGGTTTCCTACTGCTTTAGTGCTAG | 0.654
TTAGGTATCAACTTTCGGTTAGTGCTA | 1.43
TCAGATTTCTCAAACAGACTGTGCTAG | 0.498
CTGTTTTTCCCCTGCACTCAGTGCTAG | 2.56
GACTGTTTCGACTTTCGGGACGTGCTA | 5.37
GACGCTTTCAGACTGGAGACGTGCTAG | 0.174
GTCGGTTCCCTTTTCCTGACGTGCTAG | 4.21
TCAAGTTGGACCTCTCAGACTGTGCTA | -0.193
CTGCCTAACATGCTTCGAGATGTGCTA | 0.533
TTAGATTGCGGGTTTCGATTAGTGCTA | 5.67
GACGATATCGGGACTTGAGACGTGCTA | -0.163
TTAGGTATCGACTATCGGTCAGTGCTA | 0.0607
GACGAACTGAGCCTGGAGACGTGCTAG | -0.25
TTAGGTCTCCTTCTCCATTAGTGCTAG | 0.588
TTAGGTATCCGGTATCGGTTAGTGCTA | 0.83
GACGGACTGGACTACCGGGACGTGCTA | -0.836
TCATATATGTATATATGACTGTGCTAG | 0.645
GACGGTCTCCTTCTCATGACGTGCTAG | 0.247
TTATGTATCGACTATCGGTTAGTGCTA | 0.0558
GACGATTTGAGTTTCGAGACGTGCTAG | 3.08
TTACGTCTCCTTATCCTTTAGTGCTAG | 0.611

Sample 2
Target: Prothrombin, mature alpha-thrombin (F2, Homo sapiens, UniProt P00734)
Method: aptamer microarray, sandwich
Molecule type: DNA with 2'F-ANA
Medium: in vitro
Concentration: 200 nM
Setting: whole 15-mer aptamer, many near background
Added: Cy3 exosite-II aptamer, 400 nM
Reading: higher = stronger binding
Oligonucleotide: GGTTGGTGTGGTTGG
Modification | mean fluorescence intensity
2'F-ANA at 1 4 5 6 10 14 15 | 48.2 a.u.
2'F-ANA at 1 2 9 10 14 15 | 45.7 a.u.
2'F-ANA at 1 2 3 4 5 7 8 10 13 15 | 50.8 a.u.
2'F-ANA at 1 4 5 6 9 11 12 14 15 | 47.1 a.u.
2'F-ANA at 1 3 9 11 12 13 14 15 | 99.7 a.u.
2'F-ANA at 2 7 8 11 12 13 14 15 | 196 a.u.
2'F-ANA at 1 2 3 4 5 8 9 10 11 12 14 | 49.7 a.u.
2'F-ANA at 2 3 4 8 13 15 | 494 a.u.
2'F-ANA at 5 6 7 9 10 11 12 13 15 | 48.5 a.u.
2'F-ANA at 3 7 11 12 15 | 1290 a.u.
2'F-ANA at 2 3 5 7 8 11 13 14 | 64.9 a.u.
2'F-ANA at 1 5 9 14 | 45.4 a.u.
2'F-ANA at 4 6 10 13 14 | 57 a.u.
2'F-ANA at 1 4 7 8 9 12 14 15 | 73.9 a.u.
2'F-ANA at 3 5 6 12 14 15 | 76.1 a.u.
2'F-ANA at 1 3 4 5 6 7 10 12 14 15 | 55.3 a.u.
2'F-ANA at 9 11 14 | 166 a.u.
2'F-ANA at 1 2 3 9 12 13 14 15 | 142 a.u.
2'F-ANA at 1 2 5 6 8 10 11 13 15 | 54.8 a.u.
2'F-ANA at 1 2 8 9 10 11 13 14 15 | 48.6 a.u.
2'F-ANA at 4 5 6 7 8 9 10 12 14 15 | 80.9 a.u.
2'F-ANA at 2 4 6 10 11 12 14 15 | 57.5 a.u.
2'F-ANA at 1 2 3 5 6 7 10 13 14 | 45.2 a.u.
2'F-ANA at 2 4 5 8 10 11 12 15 | 51.1 a.u.
2'F-ANA at 5 6 7 8 9 | 86 a.u.

Sample 3
Substance: PhoQ, residues 284 288 289 292 302 303 DDMDFR
Method: Sort-seq
Refers to: YFP reporter
Medium: E. coli
Setting: PhoQ-PhoP variant library
Added: 10 µM Mg2+
Reference: high Mg2+ state
Reading: higher = stronger signaling
target | fold induction
PhoP, residues 12 14 15 18 19 VHTVL (Escherichia coli, UniProt P23836) | 1.12
PhoP, residues 12 14 15 18 19 ICWRQ (Escherichia coli, UniProt P23836) | 0.669
PhoP, residues 12 14 15 18 19 TQCLL (Escherichia coli, UniProt P23836) | 0.51

Sample 4
Target: Histone acetyltransferase KAT6A, both winged helices, GST fusion (KAT6A, Homo sapiens, UniProt Q92794, residues 1-181)
Method: protein binding microarray
Molecule type: double-stranded DNA, one strand shown
Medium: in vitro
Concentration: not given
Setting: 8-mer, flanks averaged, mean of 2 arrays, mostly near background
Reference: not given
Reading: higher = stronger binding
Residues (chain): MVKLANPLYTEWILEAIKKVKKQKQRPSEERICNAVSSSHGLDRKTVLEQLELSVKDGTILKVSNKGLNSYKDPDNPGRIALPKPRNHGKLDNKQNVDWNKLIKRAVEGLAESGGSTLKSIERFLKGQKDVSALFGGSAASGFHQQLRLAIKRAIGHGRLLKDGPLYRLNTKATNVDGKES
Oligonucleotide | E-score
ATCCGAGA | -0.0199
ACCATTTC | -0.119
GAGTCGAC | 0.0682
AGCTTTTA | 0.0769
CACCTACC | -0.121
CCTCTGAA | -0.144
GCCGCCGA | 0.309
CCGGTACC | 0.112
ATTATTTC | -0.0226
CAAAAAAC | -0.0696
CACACAGC | 0.0694
CGTGGTAA | -0.0383
GACGTTAC | 0.00634
CTGGATTA | -0.0506
AAATAGGA | -0.146
AAAGCGCT | 0.336
CGACAGCG | 0.198
AGTCGTAC | -0.0369
GAGGAACA | -0.0166
CAGCAGCA | -0.13
ATAGATAT | -0.0343
CTTGAAGC | 0.0752
GTCCAGGA | -0.15
CAAATCCG | 0.0851
AGTAATTG | -0.128

Sample 5
Target: CCND3, cyclin fold, Cln2 fusion (human)
Method: yeast growth competition, sequencing
Medium: yeast
Setting: weak parent motif
Reference: not given
Reading: higher = stronger binding
Parent: CDKN1B docking peptide (human); PSACRNLFGPVDH
Variant | normalised enrichment score
PSACRNLSGPVDH [F8S] | 0.167
VSACRNLFGPVDH [P1V] | 0.0927
PSACRNLHGPVDH [F8H] | 0.126
PSACRNVFGPVDH [L7V] | 0.118
PSACRNLFGQVDH [P10Q] | 0.15
PSACRNLFGPVDG [H13G] | 0.0876
PSACQNLFGPVDH [R5Q] | 0.0876
PSACRNPFGPVDH [L7P] | 0.0327
PSACRNLFGPVTH [D12T] | 0.152
QSACRNLFGPVDH [P1Q] | 0.207
PSACRNLFGHVDH [P10H] | 0.0647
PSAQRNLFGPVDH [C4Q] | 0.0404
PSACRQLFGPVDH [N6Q] | 0.15
PSACRNLAGPVDH [F8A] | 0.125
PSACRNLCGPVDH [F8C] | 0.0719
PWACRNLFGPVDH [S2W] | 0.0751

Sample 6
Target: RING finger protein unkempt homolog, zinc fingers 1-6, GST-SBP tag (UNK, Homo sapiens, UniProt Q9C0B0, residues 30-357)
UniProt Q9C0B0, sequence (30-357, looked up): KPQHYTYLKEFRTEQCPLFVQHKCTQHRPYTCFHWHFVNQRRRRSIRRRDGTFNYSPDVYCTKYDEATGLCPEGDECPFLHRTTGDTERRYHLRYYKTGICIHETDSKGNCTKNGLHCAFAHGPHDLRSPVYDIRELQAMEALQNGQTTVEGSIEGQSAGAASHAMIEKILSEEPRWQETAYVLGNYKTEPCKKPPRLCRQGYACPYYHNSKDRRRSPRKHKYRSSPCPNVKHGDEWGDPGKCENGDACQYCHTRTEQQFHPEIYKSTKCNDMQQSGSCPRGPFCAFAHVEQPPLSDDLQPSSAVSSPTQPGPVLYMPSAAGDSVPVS
Method: RNA Bind-n-Seq
Molecule type: RNA
Medium: in vitro
Concentration: not given
Setting: RNA with constant flanks, human and mouse sites, ends assumed
Reference: input RNA pool
Reading: higher = stronger binding
All sequences stand within: GGGAGUUCUACAGUCCGACGAUC … CAACAGAGGAUUGAGCAUCA
Oligonucleotide | bound/input enrichment [ratio]
UAUGAAUGUCCAGAUCUGUGUUUCCCUGCCCUCCCAGACUCUGGCCAGUUGGAAGUGUCUCGUUUUUGUUCAUCUCUCAUUUCUGGUGCAGUGACUGAGACCCUGCCACAUCUAUGCUCU | 0.238
GUUGGUACUUCUGUAAAAACCUUAGUAUUAGCAUACAGCUCUGCAGUUUCCAGCAAAAUGGUUAGGCAGAUUUUAGAGCUUUGUCCUAACCUGGAGCAUCUGGAUCUUACCCAGACUGAC | 26.2
UAAAUAUACAAUACAUCAUACAUACUUUACAAGCAAGUUAAAUGGAGAUAAAGUUGAAAUCAUAGAAGAUGCAAAUGACCUUUCAAAAUCAACACAAUGUGUUCUGAAACUUUCGUGACU | 0.213
GCACUGGAGGAACUCCUGCCAUUACCAGCUCCCUUCUUGCAGAAGGGAGGGGGAAACAUACAUUUAUUCAUGCCAGUCUGUUGCAUGCAGGCUUUUUGGCUUCCUACCUUGCAACAAAAU | 0.104
CUCCAUGUCAGGGGUGGGCGGGUGACUGCUGAGGGAGGCCCGCAGGUGUGUUUCUCCAUCCCGUCAUCUUGCUGCAUGCCGUCAACGGUCUCCGAAAGCAACGUUGUGCGUAGAGCUGGU | 0.11
UCUGCAAUAGUUGGAUUUAUCUACGGGUACGUGGCUGAACAGUUCGGGUGGACUGUCUAUAUAGUUAUGGCCGGAUUUGCUUUUUCAUGUUUGCUGACACUUCCUCCAUGGCCCAUCUAU | 0.315
UUUUUCUGUGCUCAAUGUGUAAAUUGUAUUAUAAUUCAUUGUGAUUUAUUUCACUUUUAAUUUGCUGGUGUUUUAAUAAAUGGGGGUGUUACUGAAUCUUUCUUCCCACUUCCAUUUCUU | 0.678
UGAGAUAAAAAGUUUCACUCUGCUAAGGAUAAUUACCUUUCUAAGCAUGAAAACAGACAUGCUAAGUUUUCACAUCCCUAAGUAGACAUCCCUCAUGAAUCAGAAUCGUUACAGGCCAUC | 0.199
UUGUAAUAAGUAUACUCUGUUAUAAUAUUCAACAAAAUUAAAUCCAAAUUCAAAAGUAUCCAUUAAAGUUCUAUCUUCUCAUAUCACAGUUUUUAAAGUUGAAAAGCAUCCCAGUUAAAC | 2.82
AAUGAAUAUGUUGGAUUCAGUAAUGCAACGUUUCAGUCUGAACGAGAAAGUGGAGAUCGAAAUUUUGCAAUAGGAUAUUACUUAAAAGAAAAGAAGUGUUUUCCAGAAGGCACAGACAUG | 1.52
CCUCAUGAACUUCAGAAACUACAGUGUCCCAAGAUAAAGACUGUGGACAUCAGCCUGAUUCUUUCUGAGGCGAUUCGGAGAAUCCACAAUGGAGAGUCUAUGGCUUACCUCUUCCGGAAC | 0.102

Excerpt of the above (sample 4):
Oligonucleotide | E-score
ACCATTTC | -0.119
GAGTCGAC | 0.0682
AGCTTTTA | 0.0769
CACCTACC | -0.121
CCTCTGAA | -0.144
GCCGCCGA | 0.309
CCGGTACC | 0.112
ATTATTTC | -0.0226
CAAAAAAC | -0.0696
CACACAGC | 0.0694
